Assay results from different studies.
Each numbered part is a random draw from the data of one study; scales do not carry over between parts. Positions count from the first letter of the parent shown.

Study 1 — technique: protein-binding microarray; molecule type: double-stranded DNA, one strand shown; matrix: in vitro; concentration: 2540 nM top; setting: 60-bp whole probe; added: salmon DNA 0.4 mg/ml; baseline: random background probes; direction: higher = stronger binding; shared flanks, not repeated: GCCTAGCAC … GTCTTGATTCGCTTGACGCTGCTG
Target: Interferon regulatory factor 3, full length, phosphomimetic (IRF3, Homo sapiens, UniProt Q14653, residues 1-427, S386D/S396D/S398D/S402D/T404D/S405D)
Construct (chain): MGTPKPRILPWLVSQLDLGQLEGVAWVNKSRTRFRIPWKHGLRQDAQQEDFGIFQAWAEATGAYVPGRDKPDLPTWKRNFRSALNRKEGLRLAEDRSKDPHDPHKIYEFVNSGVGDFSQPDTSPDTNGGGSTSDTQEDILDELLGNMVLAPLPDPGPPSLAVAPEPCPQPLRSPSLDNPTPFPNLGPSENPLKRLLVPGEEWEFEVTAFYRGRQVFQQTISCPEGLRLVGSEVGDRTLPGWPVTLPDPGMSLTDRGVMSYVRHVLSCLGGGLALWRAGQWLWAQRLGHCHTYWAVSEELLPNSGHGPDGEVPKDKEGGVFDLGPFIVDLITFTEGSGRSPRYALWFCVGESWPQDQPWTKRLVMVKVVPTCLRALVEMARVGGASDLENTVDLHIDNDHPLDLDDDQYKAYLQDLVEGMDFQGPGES
| Strand | fitted relative affinity |
| --- | --- |
| GACGGTTTCGGTTCCGGGAGGTGCTAG | 9.85 z-score |
| GACGAACTGGGGTATCCAGACGTGCTA | -0.187 z-score |
| GACGAACTGGGGAATCGAGACGTGCTA | -0.385 z-score |
| TCAACATTGTGCAATCTTACTGTGCTA | 0.129 z-score |
| GACGAACTGGGGTATCAAGACGTGCTA | -0.371 z-score |
| GACGGTATCCTTCTCCAGACGTGCTAG | 6.75 z-score |
| TTAGATTTGAGTATCGATTAGTGCTAG | 0.355 z-score |
| TATTATTTGCCTTGCATTTTGTGCTAG | 0.67 z-score |
| TCTGGGCCTCCATCATCTGTGTGCTAG | -1.29 z-score |
| CCGCATATCGGGGTGCGCCCGGTGCTA | -0.445 z-score |
| GCCATTGTGGATCTTGCAGAGTGCTAG | -0.144 z-score |
| GCTCCTTTTAATTTTTAACGGTGCTAG | 5.01 z-score |
| CCAGACCCTGATCCATGCATGTGCTAG | -0.157 z-score |
| TTAGGTATCGGCCTGGGTTAGTGCTAG | 0.0402 z-score |
| GACGATCTCAGTCTCGAGACGTGCTAG | 0.818 z-score |
| GACGGTTTCCTAATGCTGACGTGCTAG | 6.66 z-score |
| TTACGTATCGACTATCGGTTAGTGCTA | 0.869 z-score |
| TTAGGTATCGAATATCGGTTAGTGCTA | 0.971 z-score |

Study 2 — technique: protein binding microarray; molecule type: double-stranded DNA, one strand shown; matrix: in vitro; concentration: not given; baseline: not given; direction: higher = stronger binding
Target: Histone acetyltransferase KAT6A, winged helix 1, GST fusion (KAT6A, Homo sapiens, UniProt Q92794, residues 1-85)
Setting: 8-mer, flanks averaged, mean of 2 arrays, mostly near background
Target sequence (chain): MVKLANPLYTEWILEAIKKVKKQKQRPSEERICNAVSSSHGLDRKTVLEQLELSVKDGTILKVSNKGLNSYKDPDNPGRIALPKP
| Strand | E-score |
| --- | --- |
| TCTGCAGA | -0.0767 |
| GTTTAGAA | -0.09 |
| GCAATTAA | 0.0524 |
| AGGCTTGC | -0.08 |
| CGGCCACG | 0.26 |
| GCTCCAGC | 0.0296 |
| AACTTTGC | -0.0977 |
| CGGTAAAC | 0.243 |
| ACCAAACT | -0.121 |
| ACGCCTTA | 0.134 |
| CCGTCTGA | 0.249 |
| TATTACAA | -0.0664 |
| TGCTTCCA | -0.264 |
| ACCGCCCA | 0.215 |
| ATGCTCTG | -0.183 |
| TTGTAAAA | -0.233 |
| AAAGAAGT | -0.114 |
| ATGCGACG | 0.373 |
| AAATCGGG | -0.00522 |
| AAGACGTG | -0.0994 |
| ACACTGTA | -0.157 |
| TGCTGACA | -0.228 |

Study 3 — technique: DHFR PCA, deep sequencing; matrix: yeast; added: (+)-ABA 58 µM; baseline: wild-type fitted maximum; direction: higher = stronger binding
Target: ABI1, truncated, D143A, DHFR fusion (Arabidopsis thaliana)
Setting: methotrexate growth selection, single substitutions
Starting sequence: PYL1, truncated, DHFR fusion (Arabidopsis thaliana); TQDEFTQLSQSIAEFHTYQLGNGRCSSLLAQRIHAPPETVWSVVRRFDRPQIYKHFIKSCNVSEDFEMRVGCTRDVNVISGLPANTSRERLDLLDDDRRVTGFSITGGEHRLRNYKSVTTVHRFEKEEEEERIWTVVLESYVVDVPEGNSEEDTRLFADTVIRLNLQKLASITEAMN
| Substitution | relative binding score |
| --- | --- |
| E38V | 41.3% |
| P36T | 79.6% |
| K58H | 77.7% |
| V76P | 9.74% |
| K126S | 98.8% |
| V44L | 79.6% |
| Q7I | 72% |
| R88H | 90.5% |
| E125P | 89.7% |
| Y115Q | -24.7% |
| R32E | 87.4% |
| A170Y | -1.77% |
| N114Y | 18.3% |
| D96W | 10.3% |
| R113C | 88.3% |
| E4P | 82.1% |
| N61W | 79.5% |
| E130I | 91.6% |
| T39A | 89.6% |

Study 4 — technique: RNA Bind-n-Seq; molecule type: RNA; matrix: in vitro; concentration: 365 nM; baseline: no-protein control; direction: higher = stronger binding
Target: RNA binding protein fox-1 homolog 2, RRM domain, GST-SBP tag (RBFOX2, Homo sapiens, UniProt O43251-10, residues 100-194)
Setting: natural RNA segment, single round, ends assumed
Shared flanks, not repeated: GGGAGUUCUACAGUCCGACGAUC … UGGAAUUCUCGGGUGCCAA
Residues (chain): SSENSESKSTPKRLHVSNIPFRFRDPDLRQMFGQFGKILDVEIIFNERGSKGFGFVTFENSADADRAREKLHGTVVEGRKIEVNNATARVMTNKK
| Strand | RBNS enrichment (R) |
| --- | --- |
| GGAGAGGUAUUGUGGAUUCACACGGCAGUCACUUGUUGCCCUCAUGCCCUGUGGUGUUUGGCACGAGGCUCCCAGCCACUUAAACCUGUUCACUUUCCAAAGAAUUCAUC | 0.325 |
| AUGGUUUUAAGAAGCAGUUGUACCAAGUGAAAUUAUUUUGGAGAUUAUAAUAAAUAUAUACAUUCAAUCUGAGUUGCAUAUCCUCAGUUUGGGAAAACUUGUGGGGGCUU | 1.62 |
| CCGCCCUUCAUACUGGGAACAGAAUGUAUGUAACCCAUGUCAAUCAGAUGCAGGUGGUACCCACACGACCAGAGUGAUCAAUAGGAAUUUUCUUGGUGUUCCUUUCUUCC | 3.68 |
| AGACUGCCCUUGAUUUGCCCCUUGGUGCCAUGUAUUUCAGAGUUAAGGUCCUGCUUUCUCCACCUGGAACCAAUGUCGGCAAUACCUAGUCCCACUUCUCAAACUGGAGC | 0.194 |
| AAUUGAGGCCUCCAUGUGGGAAGUGUGAUUUCUGCUUUUGUGUCCCAUCCCCACCCCACCCCAUUACCACAGCUGCCUUUGUGUCUGUGUCAAUAAAAAGCCAAACCCUG | 0.6 |
| GCCCCUCUGUACCAUCCCCUCCCCUCCGCACCACUGACCUCUUGUCUCCUGUUGUUUCUGCCACAGGGACUUCCUUGGUCCCUUCAGGGAAGCCCUCAACUCAUCUCUGA | 0.459 |
| UCAGUUCUAGGAAGCAGGAGAGCUCGCUUGUGCAGUGUCCCACACAGCAGGGCUGAGGGGCCUAGGGCUGCCUGCUCUCCAAAGCAGAUGACCCAUGUGCGGCAGGGACU | 0.419 |
| ACUCUGCUAAUAGACACAAGCUAAGGAAAGCAGCACCGUAGCCUGACAUAGUGCAGACCUUGUAAAGCAAGAGUAGCUGGCAUCUCUUAAGUCACUGAUGCCAUUUCAUA | 0.761 |
| CCAUUUCCAAGGGCAGGAAGGGGCAGUGUCCUGAAGCCCAUCUUUUCUGUGACUGUCUUAGGUGAUGUGUAGCCCCCUCCACCUUUCCACUCAACAACCUCCCACCCCUG | 0.522 |
| AAAAGCAUGGGAAGAUUUUUAUUUAUCAAAAUAUAGAGGAAAUGUAGACAAAAUGGAUAUAAAUGAAAAUUACCAUGUUGUAAAACCUUGAAAAUCAGAUUCUAACUGGA | 10.2 |
| UUAUAAGCUGAAUUUUAUAUGUUACUGUAUAUAGUAUUUAUUUGAUUUUACUUACGCUACCUCUCCAAUGCUGGCUUCAUUUUAAUUGUGUUUUAUAUGCUCAUUUAAAA | 0.403 |
| CUGGAGGCUCUGAAUGUCUAACUUUAGCAUCAAAGUGUCUGUCUCAGAUUCCCAGUAAACACCUCUGUAGGGGAUGAAGUUUCCAUGUCCCCCAUCUUCCUUUUGGUCAC | 1.62 |

Study 5 — target: CCNE2, cyclin fold, Cln2 fusion (human); technique: yeast growth competition, sequencing; matrix: yeast; setting: weak parent motif; baseline: not given; direction: higher = stronger binding
Starting sequence: PKN2 docking peptide (human); DSTVTKLDFDLEP; partner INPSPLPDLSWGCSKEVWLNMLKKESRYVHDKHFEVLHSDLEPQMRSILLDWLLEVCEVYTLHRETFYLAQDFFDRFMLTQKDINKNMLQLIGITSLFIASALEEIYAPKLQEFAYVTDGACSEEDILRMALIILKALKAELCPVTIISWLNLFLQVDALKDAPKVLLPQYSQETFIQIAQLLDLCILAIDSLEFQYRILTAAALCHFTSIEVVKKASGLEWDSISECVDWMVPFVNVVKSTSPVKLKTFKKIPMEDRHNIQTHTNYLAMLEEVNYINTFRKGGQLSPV
| Substitution | normalised enrichment score |
| --- | --- |
| D1A | -0.21 |
| F9A | -0.438 |
| V4A | -0.249 |
| L7A | -0.497 |
| D8A | -0.0254 |
| K6A | -0.102 |
| T3A | 0.0988 |

Further values, each from its own experiment
| Molecule | target | assay | system | setting | how to read | endpoint | result |
| --- | --- | --- | --- | --- | --- | --- | --- |
| PhoQ, residues 284 288 289 292 302 303 SVTLVV | PhoP, residues 12 14 15 18 19 NQAHL (Escherichia coli, UniProt P23836) | Sort-seq, refers to: YFP reporter | E. coli | PhoQ-PhoP variant library, added: 10 µM Mg2+ | baseline: high Mg2+ state, higher = stronger signaling | fold induction | 0.978 |

Repeated from above (study 1):
| Strand | fitted relative affinity |
| --- | --- |
| GACGAACTGGGGAATCGAGACGTGCTA | -0.385 z-score |
| TCAACATTGTGCAATCTTACTGTGCTA | 0.129 z-score |
| GACGAACTGGGGTATCAAGACGTGCTA | -0.371 z-score |
| GACGGTATCCTTCTCCAGACGTGCTAG | 6.75 z-score |
| TTAGATTTGAGTATCGATTAGTGCTAG | 0.355 z-score |
| TATTATTTGCCTTGCATTTTGTGCTAG | 0.67 z-score |
| TCTGGGCCTCCATCATCTGTGTGCTAG | -1.29 z-score |
| CCGCATATCGGGGTGCGCCCGGTGCTA | -0.445 z-score |
| GCCATTGTGGATCTTGCAGAGTGCTAG | -0.144 z-score |
| GCTCCTTTTAATTTTTAACGGTGCTAG | 5.01 z-score |
| CCAGACCCTGATCCATGCATGTGCTAG | -0.157 z-score |
| TTAGGTATCGGCCTGGGTTAGTGCTAG | 0.0402 z-score |
